Assay results pooled from the literature.
Every numbered part comes from another study and shows a few of its results, in no order. Substitutions count along the parent as printed.

Block 1 — technique: RNA Bind-n-Seq; molecule type: RNA; sample: in vitro; concentration: 100 nM; relative to: input RNA pool; direction: higher = stronger binding; quantity: bound/input enrichment
Target: RING finger protein unkempt homolog, zinc fingers 1-6, SBP tag (UNK, Homo sapiens, UniProt Q9C0B0, residues 30-357)
Sequence of UniProt Q9C0B0 (30-357, looked up): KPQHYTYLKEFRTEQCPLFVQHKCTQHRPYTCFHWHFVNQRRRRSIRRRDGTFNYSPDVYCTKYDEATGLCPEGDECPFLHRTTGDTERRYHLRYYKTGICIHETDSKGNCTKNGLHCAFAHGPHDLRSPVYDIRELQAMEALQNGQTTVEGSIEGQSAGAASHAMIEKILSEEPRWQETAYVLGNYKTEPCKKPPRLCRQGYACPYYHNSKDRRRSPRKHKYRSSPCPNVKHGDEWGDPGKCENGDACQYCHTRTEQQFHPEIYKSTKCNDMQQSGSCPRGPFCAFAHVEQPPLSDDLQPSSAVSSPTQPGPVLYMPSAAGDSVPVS
Setting: RNA with constant flanks, vertebrate orthologous sites, ends assumed
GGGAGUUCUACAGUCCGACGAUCGAGCCCGGCUCACACAGACUUCACAACACUGAUGAAAGUAGCAAUUUCUAUAGUCACAGUAAGGUAGCAUUAGGGUAAUAUCACCGUGAGUUUACUCAUGUGCAGGUCUUGAAAUGUACACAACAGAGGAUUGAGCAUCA: 0.592 ratio
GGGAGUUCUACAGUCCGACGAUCGCACAUGCCGCUAUUACCAAAACCAGACUGCCACGGUUCACAUUUCGUCCAGUCCUUUCAGUGUUUCCGGCCCCGAUCCUGUCUAGUCCUUUCAGUGAUGAGGUACCCUGAGUUCUCCUUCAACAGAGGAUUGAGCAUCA: 0.471 ratio
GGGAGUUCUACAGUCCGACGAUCUCGUUGUAUUGCAAAAAUCACCCUAGUUUUAAACUAGCCUCAGUGAUAACUAGUCUGUGCUAGUAGAAUCAUUUACUAUUACCUUUUAAAUUAUCUGCUUUGUCCGAUACCUGAAACCAACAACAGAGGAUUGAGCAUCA: 0.803 ratio
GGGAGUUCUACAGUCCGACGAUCGCUCUAGUUCUUAACAACCGACACUCCUAAAAGAUUUAGAAAAAAGUUUACAAAAUAAUCUAGUUUACAGAAAAAUCUUGUGCUAGAAUACUUUUUAAAAGGUAUUUUGAAUACCAUUAACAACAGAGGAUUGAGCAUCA: 0.787 ratio
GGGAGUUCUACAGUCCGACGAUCUUCAUAAUCACGCUAAUUGUAAUCUGGAGACGUGUAACAUUGUGUAGCCUUUUGUAUAAAUAGACAGAUAGAAAUGGUCCGAUUAGUUUCCUUUUUAAUAUGCUUAAAAUAAGCAGGUGGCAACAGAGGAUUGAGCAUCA: 1.8 ratio
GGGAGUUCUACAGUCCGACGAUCUAAUUUUGAUUAUUUUCAAUCUCUUCUCCCCUUUCCUGAUUUUAAAAGCCCUUUUUUUAGGUAUAUGUAGUAACAUUAGCAAAAAGAUUUAAUUUGGGCAACUUUGAUUCUUAAAACAGACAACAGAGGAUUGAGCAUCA: 0.607 ratio
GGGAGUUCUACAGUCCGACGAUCGUUGUGAUCCCUUUAACAUCCACAGAAAGCUGUCAAAGAAAAACUUGCGAGCCAUUGACUUGGACGAUGCAGCUUUCCUGAGUGCCAAGUUUGGAAGGCAGUUUGUUCCUGGUUGGAAGCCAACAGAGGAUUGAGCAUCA: 0.275 ratio
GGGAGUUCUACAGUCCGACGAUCGAUUUGGACCUUGGAGCUGAACCAGGGAGCUAGCGAAAGUAACGCAGACUUGUAAAGUUAUAGCUAUAUGCAGCUGCACAACACAGUUCUACCACUAGCAGCUGUGUUAAAGUAUAUAAACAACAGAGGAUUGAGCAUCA: 0.273 ratio
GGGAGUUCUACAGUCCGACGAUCGGUAUCUUUUGCAUGGAAUAUUGAACACUUCCAUGCUUACGUUAAAUGCUAAAAUUAAGCUGCAGUACUUUUUCUGCAGUAUUGUUUGCUUGUGUUUAAAGUCAGACAGGAUAAAUGUGCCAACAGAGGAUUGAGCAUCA: 0.583 ratio
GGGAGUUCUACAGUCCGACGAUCUACUAGCGUCAUACCAGCAUAUUAACUAGUCAUAUGUGCACAGCUUAAAAGGUAACCGUUUAGUUAUAUUUUUUAAUUUAAGAACGGCUUUUUCCCAAGACUGAAAAAGAAGCUACAAUUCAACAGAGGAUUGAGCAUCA: 1.08 ratio
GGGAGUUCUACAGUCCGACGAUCUAAUGUCUUUUUAUUUAUUGAAGAUCGUUUUGUGCUAAGAAUUGUGUUAGAUUUAAAAAUUAGAGGAUUAAUUCCUCUUUGUUGUGUUGAUUUCAUUGUUGAAAAUAAAUAGAACUUUGUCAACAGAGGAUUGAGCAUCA: 0.741 ratio

Block 2 — target: CCNE1, cyclin fold, Cln2 fusion (human); technique: yeast growth competition, sequencing; sample: yeast; setting: weak parent motif; relative to: not given; direction: higher = stronger binding; quantity: normalised enrichment score
Starting sequence: RB1 docking peptide (human); PKPLKKLRFDIEG
PKPLIKLRFDIEG [K5I]: 0.112
PKPLKKLREDIEG [F9E]: -1.16
PKPLKKLRFDIEL [G13L]: 0.326
PKPLKKLRFDMEG [I11M]: 0.0297
PKPLKFLRFDIEG [K6F]: 1.08
PKPLKKLWFDIEG [R8W]: -0.215
PKPLKKLRLDIEG [F9L]: 0.441
PVPLKKLRFDIEG [K2V]: 1.05
PKPLKYLRFDIEG [K6Y]: -0.369
PKPLKALRFDIEG [K6A]: 0.328
PKPLKKLRFDIEY [G13Y]: -0.622
DKPLKKLRFDIEG [P1D]: 1.33
PYPLKKLRFDIEG [K2Y]: 1.11
MKPLKKLRFDIEG [P1M]: 0.026
IKPLKKLRFDIEG [P1I]: 0.577
PKPDKKLRFDIEG [L4D]: 1.04
PKPLKKLRGDIEG [F9G]: 0.921
PKELKKLRFDIEG [P3E]: 0.317

Block 3 — technique: DHFR PCA, deep sequencing; sample: yeast; together with: (+)-ABA 0.0091 µM; relative to: wild-type fitted maximum; direction: higher = stronger binding; quantity: relative binding score
Target: ABI1, truncated, D143A, DHFR fusion (Arabidopsis thaliana)
Setting: methotrexate growth selection, single substitutions
Starting sequence: PYL1, truncated, DHFR fusion (Arabidopsis thaliana); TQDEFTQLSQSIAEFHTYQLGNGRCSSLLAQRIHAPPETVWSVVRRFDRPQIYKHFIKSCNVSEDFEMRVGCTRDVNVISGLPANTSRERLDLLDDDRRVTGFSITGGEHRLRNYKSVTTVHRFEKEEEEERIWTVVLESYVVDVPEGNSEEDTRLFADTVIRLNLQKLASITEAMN; partner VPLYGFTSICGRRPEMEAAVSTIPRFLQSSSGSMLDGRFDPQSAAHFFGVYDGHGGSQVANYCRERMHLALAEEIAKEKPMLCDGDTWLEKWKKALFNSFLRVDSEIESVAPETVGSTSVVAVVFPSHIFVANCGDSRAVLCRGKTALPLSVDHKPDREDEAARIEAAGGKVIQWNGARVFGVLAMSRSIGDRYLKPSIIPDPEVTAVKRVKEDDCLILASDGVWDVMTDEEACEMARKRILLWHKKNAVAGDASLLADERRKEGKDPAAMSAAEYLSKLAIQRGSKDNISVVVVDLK
G71W: 0.948%
V161F: 15.7%
V43C: 1.7%
D95T: -1.34%
E64G: 13.9%
T39H: 5.09%
C25N: -3.99%
G23N: 25.7%
Q167I: -3.01%
V62K: -0.443%
P146Q: 24.4%
E139F: -7.56%
E128W: 10.1%
Q31G: -1.26%
G107V: -5.16%
A13R: 38.2%

Block 4 — technique: RNAcompete; molecule type: RNA; sample: in vitro; concentration: 20 nM; setting: 7-mer, probes averaged, single round; relative to: mean of 7-mers; direction: higher = stronger binding; quantity: 7-mer Z-score
Target: PABPC1L2, full length, GST fusion (mouse, UniProt A0ABA7IW68)
Residues (chain): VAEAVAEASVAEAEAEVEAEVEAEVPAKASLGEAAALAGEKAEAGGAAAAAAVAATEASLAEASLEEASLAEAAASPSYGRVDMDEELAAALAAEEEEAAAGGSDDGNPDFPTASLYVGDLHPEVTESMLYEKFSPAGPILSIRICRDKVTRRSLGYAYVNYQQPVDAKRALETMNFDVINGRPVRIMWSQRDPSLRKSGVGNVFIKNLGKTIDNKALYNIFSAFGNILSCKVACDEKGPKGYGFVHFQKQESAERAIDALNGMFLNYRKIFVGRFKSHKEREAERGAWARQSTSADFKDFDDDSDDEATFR
AAUUAGG: 0.488
UCGAACC: -0.296
UUUAGCG: 0.142
GCGCCUG: -0.238
UACCGCG: -0.266
GAGGGUA: 0.0968
GGCGAAC: 0.3
UUGGCCG: -0.235
UACUGAG: -0.126
AGAUAUA: -0.157
UCCCAAG: -0.193
UAGGGUA: 0.0587
UCUCAGU: -0.315
ACUCACG: -0.0428
UCGGAGU: -0.211
GAUGGAA: 0.0732
GCAUCCC: -0.32
UACCGGA: -0.199
GUUGGGU: -0.115
CCAGACC: 0.0152
GCCACCG: -0.226
AACAUGA: 0.871
CUACAUA: -0.13
GGGCGUU: 0.0678
CCUCCAA: -0.246
